Experimental data gathered from unrelated publications.
Compare with care: the assays were run in different laboratories. Several values in a cell are separate wells, animals, samples, runs or records. ± marks the error that the study gave.

With `O=C(NCc1cc[nH]n1)c1ccc(C2CCCCC2)cc1` the hepatic clearance was 49 mL/min/kg (liver microsome stability; rat liver microsomes; 1 µM).
`CO[C@@H]1[C@H](O)[C@@H](CO)O[C@H]1n1c([N+](=O)[O-])nc2c(=O)[nH]c(N)nc21`: “nucleoside remaining fraction” 0.884 (depurination, RP-HPLC; citrate-phosphate buffer 0.5 mM; 177 min, pH 2, 37 °C).
`COc1ncc(-c2nc3c(n2C(C)C)[C@H](c2ccc(Cl)cc2)N(c2cc(Cl)cn(C)c2=O)C3=O)c(OC)n1` has a median Tmax of 2 h (human patients, plasma; oral, 150 mg).
Under “dose recovered as radioactivity”, `C=CC(=O)NC1CCN(c2ncc3ncnc(Nc4ccc(Oc5ccc6c(c5)ncn6C)c(C)c4)c3n2)CC1` is recorded as 92.5% (refers to: total radioactivity; healthy male volunteers, faeces; oral solution, 60 mg, 680 h collection, 14C-labelled, geometric mean).
`NC1(C(=O)N[C@@H](CCO)c2ccc(Cl)cc2)CCN(c2nc[nH]c3nccc2-3)CC1` — result for “incidence of Anaemia”: 6.7% (metastatic CRPC patients; dose not given, any grade, treatment-related, all doses, with: enzalutamide 160 mg daily).
`CN(C)CCC(=O)Nc1ccc([C@H]2[C@@H](F)[C@@H](F)C[C@@H](F)[C@H]2F)cc1` has a hepatic clearance of 3.9 mL/min/kg (liver microsome stability; human liver microsomes; 1 µM, without NADPH).
`CC(C)(C(=O)N1CCOc2c(C#N)cncc2C1)C(F)F` — result for “subjects with adverse event”: 50% (refers to: Headache; human; oral, 10 mg, CSF pharmacokinetic cohort).
`N#Cc1ccc2c(c1)[C@H]1CCCN(C(=O)c3ccc4[nH]cnc4c3)[C@H]1C2` gave an androstenedione level of 9.7 nmol/L (human, male; 80 mg, day 7).
`C#C[C@]1(O)CC[C@H]2[C@@H]3CCC4=CC(=O)CC[C@@H]4[C@H]3CC[C@@]21C` — result for “Cmin geometric mean”: 0.17 ng/mL (HIV-infected women on protease inhibitor, serum; oral, 0.35 mg, steady state).
For `CCOc1c([C@H](C)n2nc(C)c3c(N)ncnc32)cc(Cl)c(F)c1[C@@H]1CNC(=O)C1`, the Cmin was 287 nM (patients with B-cell malignancies, plasma; oral, 30 mg once daily, cycle 1 day 15, monotherapy).
With `CNc1ccc(-c2nc3ccc(O)cc3s2)cc1` [carbon-11 labelled] the SUV was 0.341 ± 0.317 (ex vivo biodistribution; B6SJL mouse, normal, skin; intravenous, 30 min).
`O=C(O)CCC(=O)O.[2H]C([2H])([2H])Oc1cc(C)c2[nH]ccc2c1CN1CC[C@@H](C2CC2)C[C@H]1c1ccc(C(=O)O)cc1` — result for “subjects with TEAE Anemia”: 0% (multiple ascending dose; healthy Chinese subjects; 125 mg twice daily).
The MRT(0-inf) of `OCc1nc2ccc(NCc3ccc(C(F)(F)F)cc3)cc2[nH]1` is reported as 1.09 ± 0.1 h (Balb/c mice, male, plasma; intravenous, 1 mg/kg).
`FC(F)(F)CN1CC(n2cc(Oc3ccn4nc(Cl)cc4n3)cn2)C1`: “day of premature euthanasia” 4 days (Crl:CD(SD) rat, male; oral, 450 mg/kg/day, 14-day repeat-dose toxicology).
`O=C(NCCN1CCCC1=O)c1ccc([C@H]2[C@@H](F)[C@@H](F)C[C@@H](F)[C@H]2F)cc1` gave a hepatic clearance of 27 mL/min/kg (liver microsome stability; mouse liver microsomes; 1 µM).
For `CN1C(=O)[C@@H](NC(=O)c2nnc(Cc3ccccc3)[nH]2)COc2cccnc21`, “TEAE leading to permanent discontinuation” read 0% (phase I single ascending dose; human, male and female; oral, 400 mg, fasted).
`CC(C)NCCCC[C@@H]1NC(=O)[C@H](Cc2ccc(O)cc2)NC(=O)[C@H](Cc2ccccc2)NC(=O)CC[C@H](C(=O)N[C@@H](CCCCNC(C)C)C(=O)N[C@@H](CCCCNC(=O)[C@H](CCC(=O)O)NC(=O)[C@H](CCC(=O)O)NC(=O)[C@H](CCC(=O)O)NC(=O)CN2CCN(CC(=O)O)CCN(CC(=O)O)CCN(CC(=O)O)CC2)C(N)=O)NC(=O)CNC(=O)[C@H](Cc2ccc3ccccc3c2)NC(=O)[C@@H](CCCNC(=N)N)NC1=O` [gallium-68 labelled] has a tissue uptake of 0.17 %ID/g (mouse with PC-3 xenograft, fat; intravenous, 1 h).
Under “subjects with contact dermatitis”, `Cc1cc(Nc2cc3ncccc3c(N[C@@H]3C[C@H]4CC[C@@H](C3)N4CCC#N)n2)n[nH]1` is recorded as 0% (healthy human; oral, 10 mg single dose, 2 weeks).
For `O=C(Nc1ccc([C@H]2[C@@H](F)[C@@H](F)C[C@@H](F)[C@H]2F)cc1)c1cn[nH]c1`, the hepatic clearance was 21 mL/min/kg (cryopreserved mouse hepatocytes; 1 µM).
`Cc1ccc(C)c(OCCCC(C)(C)C(=O)O)c1` — result for “trough plasma concentration”: 1700 ng/mL (human, plasma; oral, dose not given, day 14 predose, median).
`CCO[C@H]1CCN(Cc2c(OC)cc(C)c3[nH]ccc23)[C@H](c2ccc(C(=O)O)cc2)C1` gave an unbound Tmax of 2.3 h (human moderate hepatic impairment, plasma; oral, 200 mg single dose, median).
`CNC(=O)c1ccc(-c2cnc3ncc(Cc4ccc5ncccc5c4)n3n2)cc1F` — result for “patients with adverse event”: 0% (refers to: Headache; cancer patients; oral, dose not given, dose escalation, grade 3-4).
`O=C(Nc1ccc(Cl)cc1)Nc1ccc(Cl)c(Cl)c1`: “milk fat partition ratio” 161 (cow whole milk; 2000 nM; relative to: milk fat over skim milk).
`C=CCn1c(=O)c2cnc(Nc3ccc(N4CCN(C)CC4)cc3)nc2n1-c1cccc(C(C)(C)O)n1` has an AUC(0-10 h) of 6.91 µM·h (human patients; oral, 175 mg twice daily, day 17, cycle 1, with: durvalumab 1500 mg iv).
For `O=C(NCC1CCOCC1)c1ccc(C2CCCCC2)cc1`, the hepatic clearance was 76 mL/min/kg (hepatocyte stability; cryopreserved mouse hepatocytes; 1 µM).
Under “subjects with adverse event”, `NS(=O)(=O)c1cc(C(=O)O)c(NCc2ccco2)cc1Cl` is recorded as 0% (refers to: nausea; healthy men; oral, 8 days, treatment-emergent, crossover trial).
`COc1ccc([C@@H](O)c2cc(-c3ncnc4cc(N5CCOCC5)ccc34)c(F)cc2Cl)nn1` — result for “drug-related lymphocyte count decrease”: 32% (locally advanced rectal cancer; all dose levels overall, with: capecitabine and radiotherapy).
For `O=C(N[C@H](Cc1c[nH]c2ccccc12)C(=O)Nc1ccncc1)c1ccc(-c2cc(C(F)(F)F)ccc2F)cc1F`, the concentration was 310 nM (Swiss Webster mouse, female, plasma; oral, 50 mg/kg, 8 h, 20% HPβCD vehicle).
With `C=CC(=O)Nc1cc(Nc2nccc(-c3cn(C4CC4)c4ccccc34)n2)c(OC)cc1N(C)CCN(C)C` the relative error was 12.8% (long-term storage stability; rat plasma; 1 ng/mL, 3 weeks, -80 °C; relative to: nominal concentration).
`O=C(O)c1ccccc1O` has an AUC(0-2 h) of 13000 ng·h/mL (humans, both sexes, plasma; oral, 650 mg aspirin, with alcohol, geometric mean).
For `CCc1ccc(OS(=O)(=O)[O-])cc1.[K+]`, “serum protein binding” read 100% (ultrafiltration; normal rat serum; 37 °C).
With `CC(C)C[C@@H]1NC(=O)CN(C)C(=O)[C@H](Cc2ccccc2)NCc2ccc([nH]2)CNC1=O` the -log Pe was 5.89 + 0.08 (PAMPA; 2% lecithin in dodecane; 100 µM, 17 h, pH 6.4, 37 °C).
With `N[C@@H]1c2ccccc2OC12CCN(c1cnc3c(N4CCCc5ncccc54)n[nH]c3n1)CC2` the AUC(0-tau) was 12200 ng·h/mL (advanced metastatic solid tumour patients, plasma; oral, 75 mg once daily, cycle 1 day 15, geometric mean).
The AST/ALT ratio of `Nc1ncnc2c1ncn2[C@H]1C[C@@H]2OP(=O)(O)OC[C@H]3O[C@@H](n4cnc5c(N)ncnc54)C[C@@H]3OP(=O)(O)OC[C@H]2O1` is reported as 3.09 ± 0.42 (non-tumor-bearing mice, serum; intravenous, 1 mg/kg, toxicity study).
`FC(F)(F)c1cc(Nc2nc(Cl)nc(Cl)n2)cc(C(F)(F)F)c1`: “degradation rate constant” 0.7 h⁻¹ (chemical stability, HPLC-MS; borate buffered saline; pH 10.2, no N-acetyl-lysine).
With `CCn1cc(C(=O)N2CCOCC2)c(=O)c2cc(NC3Cc4ccccc4C3)cnc21` the AUC(0-last) was 5080 ng·h/mL (human, fasted; oral suspension, 600 mg single dose, arithmetic mean).
`CC(=O)N1CC(C(=O)Nc2ccc([C@H]3[C@@H](F)[C@@H](F)C[C@@H](F)[C@H]3F)cc2)C1` gave a hepatic clearance of 7.3 mL/min/kg (liver microsome stability; dog liver microsomes; 1 µM).
Under “lanthanide tissue concentration”, `CC(C(=O)NCC(=O)NCC(CNC(=O)CNC(=O)C(C)N1CCN(CC(=O)[O-])CCN(CC(=O)[O-])CCN(CC(=O)[O-])CC1)(CNC(=O)CNC(=O)C(C)N1CCN(CC(=O)[O-])CCN(CC(=O)[O-])CCN(CC(=O)[O-])CC1)CNC(=O)CNC(=O)C(C)N1CCN(CC(=O)[O-])CCN(CC(=O)[O-])CCN(CC(=O)[O-])CC1)N1CCN(CC(=O)[O-])CCN(CC(=O)[O-])CCN(CC(=O)[O-])CC1.[Gd+3].[Gd+3].[Gd+3].[Gd+3]` (stereo not drawn) is recorded as 0.021 ± 0.009 nmol/g (cynomolgus monkey, skin; dose not given, day 58, PK group).
`CCc1c(-c2ccccc2)c(-c2ccccc2)nn1-c1ccccc1-c1cccc(OCC(=O)O)c1` has a concentration of 292 ng/mL (female Sprague-Dawley rat, ovary homogenate; oral, 10 mg/kg, 1 h).
For `CN(C)CCC(=O)Nc1ccc(C2CCCCC2)cc1`, the hepatic clearance was 79 mL/min/kg (liver microsome stability; mouse liver microsomes; 1 µM).
With `C=CC[C@@H]1/C=C(\C)C[C@H](C)C[C@H](OC)[C@H]2O[C@@](O)(C(=O)C(=O)N3CCCC[C@H]3C(=O)O[C@H](/C(C)=C/[C@@H]3CC[C@@H](O)[C@H](OC)C3)[C@H](C)[C@@H](O)CC1=O)[C@H](C)C[C@@H]2OC` the urine volume was 10 ± 3.4 mL/day (Wistar Kyoto rat, male, 24-hour urine; ip, 0.5 mg/kg/day, day 18).
For `N#Cc1cnc2ccc(F)cc2c1N1CCC(C(=O)Nc2ccc(S(N)(=O)=O)cc2)CC1`, “intrinsic clearance (scaled)” read 66 mL/min/kg (rat liver microsomes).
`OC[C@H]1O[C@@H](c2ccc(F)c(Cc3cc4ccccc4s3)c2)[C@H](O)[C@@H](O)[C@@H]1O` — result for “hypoglycaemia-related adverse event”: 3% (Japanese patients, type 1 diabetes; oral, 50 mg/day, onset day 7; relative to: patients).
With `C=CC(=O)Nc1cc(Nc2ncc(C(=O)OC(C)C)c(-c3cn(C)c4ccccc34)n2)c(OC)cc1N(C)CCN(C)C` the tissue/plasma ratio was 1.49 ± 0.71 (male Han Wistar rat, brain; intravenous infusion, 2 µmol/kg/h, 4 h; relative to: plasma).
`CCN1CCN(Cc2ccc(NC(=O)c3ccc(C)c(NC(=O)c4cncc(-c5cccs5)c4)c3)cc2C(F)(F)F)CC1` gave a plasma concentration of 168 ng/mL and 190 ng/mL and 201 ng/mL (LC-MS/MS; C57BL/6 mouse, plasma; intraperitoneal, 10 mg/kg single dose, 2 h).
With `C[C@H]1C=C(Cc2ccccc2)C(=O)O1` the KFoc was 68 mL/g (soil adsorption; tested soils; geometric mean).
`CCN1/C(=C/C(C)=O)Sc2ccc(F)cc21` — result for “QTc interval (Bazett)”: 335 ± 18 ms (cynomolgus monkey; oral, 100 mg/kg, 6 h post-dose).
Under “patients with adverse event”, `Cc1cc(NC2CCN(C(=O)OC3CCN(C(=O)/C=C/CN(C)C)C3)CC2)n2ncc(C(C)C)c2n1` (stereo not drawn) is recorded as 6% (Phase I dose escalation CTCAE v4.0, refers to: back pain; patients with advanced solid tumours; dose not given, Total dosing any grade).
`C#C[C@]1(CO)O[C@@H](n2cnc3c(N)nc(F)nc32)C[C@@H]1O` gave an AUC(0-168 h) of 23.5 µM·h (human, plasma; oral, 200 mg single dose, extrapolated beyond 96 h).
`COC1=C(OC)[C@H](O)[C@H](C/C=C(\C)CC/C=C(\C)CCC=C(C)C)[C@@H](C)C1=O` gave a blood concentration of 20.2 nM and 17 nM (mouse, BALB/c, male, whole blood; oral, 50 mg/kg, 7 h).
The AUC(0-τ) of `Cn1ncnc1[C@H]1c2n[nH]c(=O)c3cc(F)cc(c23)N[C@@H]1c1ccc(F)cc1` is reported as 189 ng·h/mL (human patients, plasma; oral, 600 µg/m2, median).
`Cc1nc(-c2ccc(OCC(C)C)c(C#N)c2)sc1C(=O)O` has a body weight of 34.4 g and 32.2 g and 42 g and 37 g and 38.8 g and 31.8 g (KM mouse, chronic hyperuricaemia model; dose not given, day 20).
Under “treatment-emergent adverse events”, `O=C(Nc1nc2cccc(-c3ccc(CN4CCS(=O)(=O)CC4)cc3)n2n1)C1CC1` is recorded as 0% (refers to: vascular disorders; rheumatoid arthritis patients; oral, 300 mg once daily, 4 weeks, any relatedness).
`CC1(C)C(/C=C/C=C/C=C2/N(CCCCCC(=O)NCCC(=O)N3Cc4ccccc4C#Cc4ccccc43)c3ccc(S(=O)(=O)O)cc3C2(C)C)=[N+](CCCS(=O)(=O)[O-])c2ccc(S(=O)(=O)O)cc21` gave a circulation time of > 35 days (C57BL/6 mouse, azido-sugar treated, blood, RBC-conjugated; intravenous, single dose).
For `c1ncc(-c2ccc(C3CCCCC3)cc2)cn1`, the hepatic clearance was 44 mL/min/kg (liver microsome stability; rat liver microsomes; 1 µM).
For `Cc1nc(-c2ccc(OCC(C)C)c(C#N)c2)sc1C(=O)O`, “subjects with serious adverse events” read 0% (healthy Chinese subjects, fasted; oral, 40 mg single dose).
`Cc1ccc([C@@H]2O[C@H](CO)[C@@H](O)[C@H](O)[C@H]2O)cc1Cc1ccc(-c2ccc(F)cc2)s1` — result for “urinary phosphate excretion change”: 162 mg (refers to: inorganic phosphorus; Japanese type 2 diabetes patients; 400 mg, day 2, 24 h urine collection; relative to: baseline).
